# Measurements gathered from unrelated publications.
# Each numbered part is a random draw from the data of one study; scales do not carry over between parts. Positions count from the first letter of the parent shown.

# Block 1
# Target: inorganic phosphate, free oxyanion
# Method: microfluidic competitive inhibition
# Matrix: in vitro, cell-free expressed
# Concentration: not given
# Setting: derived from inhibition constants, unchanged parent 615000 nM
# Direction: lower = stronger binding
# Starting sequence: PafA, mature enzyme, eGFP fusion (Elizabethkingia meningoseptica, UniProt Q9KJX5); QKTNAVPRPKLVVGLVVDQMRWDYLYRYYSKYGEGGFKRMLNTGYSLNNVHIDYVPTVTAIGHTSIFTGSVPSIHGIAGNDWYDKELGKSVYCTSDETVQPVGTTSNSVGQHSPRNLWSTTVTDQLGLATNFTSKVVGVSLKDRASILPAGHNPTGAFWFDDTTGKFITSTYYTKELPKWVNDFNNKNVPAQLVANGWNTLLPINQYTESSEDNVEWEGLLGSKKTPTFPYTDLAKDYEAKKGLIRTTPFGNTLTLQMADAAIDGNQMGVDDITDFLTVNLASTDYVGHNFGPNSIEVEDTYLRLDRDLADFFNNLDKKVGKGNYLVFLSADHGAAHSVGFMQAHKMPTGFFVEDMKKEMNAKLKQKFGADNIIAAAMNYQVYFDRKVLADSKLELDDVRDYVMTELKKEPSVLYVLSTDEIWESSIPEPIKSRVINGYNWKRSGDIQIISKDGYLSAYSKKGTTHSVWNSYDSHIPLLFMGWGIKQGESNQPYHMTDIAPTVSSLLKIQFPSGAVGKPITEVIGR
Change,phosphate dissociation constant [µM]
W483V,598
Q366V,627
A310V,666
Q492V,625
I422V,647
A331G,407
A500G,438
S451V,606

# Block 2
# Target: UDP-N-acetylglucosamine--peptide N-acetylglucosaminyltransferase 110 kDa subunit (OGT, Homo sapiens, UniProt O15294)
# UniProt O15294, sequence (whole entry, looked up): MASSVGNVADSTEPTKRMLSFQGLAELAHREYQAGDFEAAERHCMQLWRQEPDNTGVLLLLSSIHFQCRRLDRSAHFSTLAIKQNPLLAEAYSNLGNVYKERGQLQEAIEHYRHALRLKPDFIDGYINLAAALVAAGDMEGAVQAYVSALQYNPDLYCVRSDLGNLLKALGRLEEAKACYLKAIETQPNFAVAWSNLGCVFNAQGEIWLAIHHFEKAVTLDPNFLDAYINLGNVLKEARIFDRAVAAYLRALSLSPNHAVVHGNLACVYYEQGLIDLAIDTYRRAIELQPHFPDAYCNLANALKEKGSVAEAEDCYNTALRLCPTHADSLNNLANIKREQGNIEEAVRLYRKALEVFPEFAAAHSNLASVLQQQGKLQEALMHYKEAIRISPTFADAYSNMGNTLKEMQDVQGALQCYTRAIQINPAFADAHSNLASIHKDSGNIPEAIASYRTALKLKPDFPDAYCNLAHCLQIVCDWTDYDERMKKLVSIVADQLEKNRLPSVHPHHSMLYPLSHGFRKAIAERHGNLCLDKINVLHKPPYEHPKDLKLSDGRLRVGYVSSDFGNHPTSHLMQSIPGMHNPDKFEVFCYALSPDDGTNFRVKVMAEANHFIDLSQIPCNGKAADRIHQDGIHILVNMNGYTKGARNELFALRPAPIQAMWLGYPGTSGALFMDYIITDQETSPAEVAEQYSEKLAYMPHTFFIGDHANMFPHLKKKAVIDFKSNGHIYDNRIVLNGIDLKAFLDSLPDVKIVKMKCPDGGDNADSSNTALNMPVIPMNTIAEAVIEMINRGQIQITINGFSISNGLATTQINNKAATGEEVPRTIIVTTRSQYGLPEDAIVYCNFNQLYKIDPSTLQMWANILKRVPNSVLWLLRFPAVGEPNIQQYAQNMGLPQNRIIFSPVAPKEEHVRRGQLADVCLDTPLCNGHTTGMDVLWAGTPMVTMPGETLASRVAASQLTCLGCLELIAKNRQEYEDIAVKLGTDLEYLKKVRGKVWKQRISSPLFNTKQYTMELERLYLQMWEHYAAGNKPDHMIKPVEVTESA
# Observed: binding
# Method: phage display NGS
# Molecule type: peptide
# Concentration: concentration not given
# Baseline: input library
Sequence,enrichment fold change
TFMPQTHHRPHHSNH,10.1
RYYEPVYQIVATNSN,6.31
QWKPRHDHIHYYEYH,8
TTHYLPVYQIELKNA,2.62
HVMHYHYQHGYTQP,6.01
HQRHGQHQQVFFHID,9.37
HNHHSHASQMPKFDV,3.04
HGIYWRGLADHGLD,5.03

# Block 3
# Target: CCNB3, cyclin fold, Cln2 fusion (human)
# Method: yeast growth competition, sequencing
# Matrix: yeast
# Setting: strong parent motif
# Baseline: not given
# Direction: higher = stronger binding
# Starting sequence: viral docking peptide; TSVRRALFTGGSD; partner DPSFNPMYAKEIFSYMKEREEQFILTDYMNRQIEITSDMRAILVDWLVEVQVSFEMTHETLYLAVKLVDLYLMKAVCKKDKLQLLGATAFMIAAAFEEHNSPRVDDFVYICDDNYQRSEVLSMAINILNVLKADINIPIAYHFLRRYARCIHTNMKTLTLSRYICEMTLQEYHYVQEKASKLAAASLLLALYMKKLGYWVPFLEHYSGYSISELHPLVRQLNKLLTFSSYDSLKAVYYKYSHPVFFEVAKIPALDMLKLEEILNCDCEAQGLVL
Change,normalised enrichment score
L7N,0.205
G10K,1.62
F8I,0.57
R4Q,0.156
S2T,1.76
S2P,1.5
R5F,-0.0115
V3H,0.224

# Other studies, line by line
SMILES,species,matrix,route,dose,time,quantity,value
O=C1CCC(N2Cc3c(ccc4c3OCC43CCN(Cc4ccccc4)CC3)C2=O)C(=O)N1 (stereo not shown),male Sprague Dawley rats,plasma,intravenous,1 mg/kg,0.5 h,plasma concentration,263 ng/mL

# Excerpt of the above (block 2):
Sequence,enrichment fold change
HQRHGQHQQVFFHID,9.37
HNHHSHASQMPKFDV,3.04
